Experimental data gathered from unrelated publications.
Lines come from different studies, so protocols differ.
TDP1: Tyrosyl-DNA phosphodiesterase 1 (TDP1, Homo sapiens, UniProt Q9NUW8)
Chain of UniProt Q9NUW8 (whole entry, looked up): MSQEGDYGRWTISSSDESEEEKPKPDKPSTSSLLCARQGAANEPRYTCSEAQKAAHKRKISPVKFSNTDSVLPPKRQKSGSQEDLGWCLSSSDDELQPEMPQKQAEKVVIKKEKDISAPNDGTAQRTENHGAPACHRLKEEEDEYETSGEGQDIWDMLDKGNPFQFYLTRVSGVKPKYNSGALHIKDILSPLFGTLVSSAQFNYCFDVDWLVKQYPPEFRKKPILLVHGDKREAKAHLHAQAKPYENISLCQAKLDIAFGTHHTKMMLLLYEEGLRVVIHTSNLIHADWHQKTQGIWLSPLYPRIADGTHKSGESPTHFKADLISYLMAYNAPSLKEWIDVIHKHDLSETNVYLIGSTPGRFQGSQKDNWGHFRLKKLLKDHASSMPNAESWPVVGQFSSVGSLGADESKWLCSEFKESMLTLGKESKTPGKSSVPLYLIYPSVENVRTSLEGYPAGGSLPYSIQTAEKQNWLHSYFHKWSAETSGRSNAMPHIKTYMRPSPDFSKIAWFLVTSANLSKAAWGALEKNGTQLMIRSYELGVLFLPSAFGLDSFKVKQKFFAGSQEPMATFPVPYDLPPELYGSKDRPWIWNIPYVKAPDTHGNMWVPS
Uncharacterized protein: Uncharacterized protein (Trypanosoma brucei brucei, UniProt Q386Q8)
Chain of UniProt P41146 (whole entry, looked up): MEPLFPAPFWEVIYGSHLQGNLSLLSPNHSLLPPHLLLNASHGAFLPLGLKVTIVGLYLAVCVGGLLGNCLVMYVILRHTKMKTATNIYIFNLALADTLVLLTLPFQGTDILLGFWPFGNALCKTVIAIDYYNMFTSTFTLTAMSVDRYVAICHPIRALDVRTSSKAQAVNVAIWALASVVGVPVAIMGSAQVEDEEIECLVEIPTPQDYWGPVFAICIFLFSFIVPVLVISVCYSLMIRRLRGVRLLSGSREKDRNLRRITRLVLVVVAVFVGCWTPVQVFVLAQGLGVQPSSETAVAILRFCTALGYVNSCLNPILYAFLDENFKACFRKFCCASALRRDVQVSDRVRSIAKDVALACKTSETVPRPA
Chain of UniProt P10276 (whole entry, looked up): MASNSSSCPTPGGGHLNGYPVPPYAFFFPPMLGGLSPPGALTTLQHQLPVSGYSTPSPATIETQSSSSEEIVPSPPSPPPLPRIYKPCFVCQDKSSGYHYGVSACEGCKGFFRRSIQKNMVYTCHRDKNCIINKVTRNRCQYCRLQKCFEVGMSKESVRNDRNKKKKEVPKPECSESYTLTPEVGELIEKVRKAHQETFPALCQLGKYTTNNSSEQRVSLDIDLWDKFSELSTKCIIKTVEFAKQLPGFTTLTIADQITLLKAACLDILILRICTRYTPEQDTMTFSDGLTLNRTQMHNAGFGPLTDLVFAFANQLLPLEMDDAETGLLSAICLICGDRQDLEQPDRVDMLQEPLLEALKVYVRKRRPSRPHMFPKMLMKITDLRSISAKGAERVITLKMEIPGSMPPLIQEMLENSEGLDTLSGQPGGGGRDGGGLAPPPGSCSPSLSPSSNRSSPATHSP
Chain of UniProt P32238 (whole entry, looked up): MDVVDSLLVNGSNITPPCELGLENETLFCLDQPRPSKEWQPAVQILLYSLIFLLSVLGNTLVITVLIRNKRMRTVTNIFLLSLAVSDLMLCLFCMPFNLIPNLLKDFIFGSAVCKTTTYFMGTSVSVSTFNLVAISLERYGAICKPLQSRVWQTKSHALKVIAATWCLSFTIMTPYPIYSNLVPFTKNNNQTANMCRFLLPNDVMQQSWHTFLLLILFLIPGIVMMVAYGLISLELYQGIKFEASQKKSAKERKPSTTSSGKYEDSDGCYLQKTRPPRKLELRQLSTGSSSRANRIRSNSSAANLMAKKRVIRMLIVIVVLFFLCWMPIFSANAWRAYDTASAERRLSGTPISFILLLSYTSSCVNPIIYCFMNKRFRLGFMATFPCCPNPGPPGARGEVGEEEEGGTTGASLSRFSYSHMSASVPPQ

SMILES	tested on	assay	system	conditions	scale	endpoint	result
Nc1ncc(-c2cc(-c3cnn(CC(F)(F)F)c3)ncc2F)nc1C(=O)NC1CNCC(F)C1 (stereo not shown)	WNK1	KINOMEscan		1 µM	reference: DMSO control	remaining binding	70%
COC1CN([C@H]2CC[C@H]([C@@]3(C)Oc4c(Cl)cc(C(=O)NCc5c(SC)cc(C)[nH]c5=O)c(C)c4O3)CC2)C1		RNA-seq, item: CBS mouse homolog	mouse, HT-1376 xenograft, whole blood	dose not given	reference: vehicle	log2 fold change	0.482
COc1cccc2cc(C=NOCc3ccc4nc(-c5ccccc5)c(Nc5ccc(C(=O)O)cc5)n4c3)oc12	TDP1	enzyme activity, inhibitor		100 µM, unpurified compound		inhibition	-3.6%
O=C1c2sc(-c3ccc(N4CCC(CO)CC4)nc3F)nc2CCN1c1cccnc1	Retinoic acid receptor alpha (RARA, Homo sapiens, UniProt P10276)	ligand displacement, radioligand		1 µM		inhibition	-7%
C[Si](C)(C)C[C@@H](CN)CC(=O)O	Cholecystokinin receptor type A (CCKAR, Homo sapiens, UniProt P32238)	ligand displacement, radioligand		75 µM		inhibition	11%
Cc1nc2c(C)cccn2c1C=NOCc1ccc2nc(-c3ccccc3)c(Nc3ccc(C(=O)O)cc3)n2c1 (mixture of isomers)	TDP1	enzyme activity, inhibitor		100 µM, unpurified compound		inhibition	1.3%
C[N+]1(Cc2ccc3ccccc3c2)CCN(CCCN2c3ccccc3Sc3ccc(Cl)cc32)CC1	Uncharacterized protein	enzyme activity, inhibitor, coupled colorimetric		30 µM, together with: E. coli pyrophosphatase coupling		inhibition	30.6%
Cc1ncsc1-c1ccc(C(C)NC(=O)C2CC(O)CN2C(=O)C(NC(=O)CCCCCCCCCCN2CCCC(Nc3ncc(Cl)c(Nc4ccccc4S(=O)(=O)C(C)C)n3)C2)C(C)(C)C)cc1 (stereo not shown)	22Rv1	RNA-seq, item: ZNF671 mRNA		concentration not given	reference: DMSO	log2 fold change	-1.79
CC(=O)C1=C(C)Nc2ccccc2S1	Uncharacterized protein	enzyme activity, inhibitor, coupled colorimetric		30 µM, together with: E. coli pyrophosphatase coupling		inhibition	26.6%
CNS(=O)(=O)Nc1nccc(Cc2c(C)c3ccc(Oc4ncccc4F)cc3oc2=O)c1F	RMUGS	cell viability, CellTiter-Glo		7 days		IC50	99 nM
O=C(CSc1nnc(-c2ccco2)c(-c2ccco2)n1)c1ccc(Cl)s1	Uncharacterized protein	enzyme activity, inhibitor, coupled colorimetric		30 µM, together with: E. coli pyrophosphatase coupling		inhibition	28.3%
O=C1c2sc(-c3ccc(N4CCC(F)C4)nc3F)nc2CCN1c1cccnc1 (stereo not shown)	Nociceptin receptor (OPRL1, Homo sapiens, UniProt P41146)	ligand displacement, radioligand		1 µM		inhibition	2%
COc1cc([N+](=O)[O-])ccc1-n1c(C)cc(C=NOCc2ccc(-c3nc4cc(-c5ccccc5)ccn4c3Nc3ccc(C(=O)O)cc3)cc2)c1C	TDP1	enzyme activity, inhibitor		100 µM, unpurified compound		inhibition	42.1%

Repeated from above:
SMILES	tested on	assay	system	conditions	scale	endpoint	result
C[Si](C)(C)C[C@@H](CN)CC(=O)O	Cholecystokinin receptor type A (CCKAR, Homo sapiens, UniProt P32238)	ligand displacement, radioligand		75 µM		inhibition	11%
Cc1nc2c(C)cccn2c1C=NOCc1ccc2nc(-c3ccccc3)c(Nc3ccc(C(=O)O)cc3)n2c1 (mixture of isomers)	TDP1	enzyme activity, inhibitor		100 µM, unpurified compound		inhibition	1.3%
